Experimental data pooled from the literature.
Each line is one published result; not all experiments were run side by side. Values joined by “and” are separate records of one study, mostly repeats; a detail may differ. Numbers after ± are the reported error.

Compound | assay | test system | setting | logP
CCNC(=O)c1ncccc1O | shake-flask, potentiometric | 1-octanol/water |  | 1.6
C[C@H]1COC2=C1C(=O)C(=O)c1c2ccc2c1CCCC2(C)C |  | n-octanol/water | 24 h, 25 °C | 4.5 and 4.46
COc1ccnc(C(=O)NC2CCCCC2)c1O | shake-flask, potentiometric | 1-octanol/water |  | 1.6
O=C(Cn1nc(-c2cccc([N+](=O)[O-])c2)c2ccccc2c1=O)NCC1CCCO1 (stereo not shown) |  | octanol/buffer | pH 11, known kinase inactives set | 2.27
C=Cc1c(C)c2cc3nc(c4c5[nH]c(cc6nc(cc1[nH]2)C(C)=C6CC)c(C)c5C(=O)C4)[C@@H](CCC(=O)O)[C@@H]3C | shake flask | octanol/water 1:1 |  | 0.554
Cc1nc(C(=O)NCC(=O)O)c(O)c2ccc(Oc3ccccc3)cc12 | shake-flask, potentiometric | 1-octanol/water |  | 3.7
CC1(C)C2CCC1(CS(=O)(=O)O)C(=O)C2.O=C(NCCCNc1nc(Nc2cccc(NC(=O)N3CCCC3)c2)ncc1I)c1cccs1 | shake flask | octanol/water |  | 1.35 ± 0.1
O=C(Cn1cnc([N+](=O)[O-])n1)Nc1ccc(N2CCOCC2)c(Cl)c1 |  | octanol/buffer | pH 11, known kinase inactives set | 1.91
O=C(O)c1ccc2nc(-c3cc(Cl)cc(Cl)c3)oc2c1 | in-house determination |  |  | 2.12
C=CC(=O)N(C)CCOc1c(N)ncnc1-c1cc(F)cc(NC(=O)c2ccc(C3CC3)cc2F)c1C | titration | octanol/water |  | 2.8
C[C@@H](NC(=O)c1ccccc1CCC(=O)NNC(=O)/C=C/C(=O)OC(C)(C)C)c1cccc2ccccc12 |  |  |  | 4
CC/C=C\C/C=C\C/C=C\C/C=C\C/C=C\C/C=C\CCC(=O)O.Cc1cc(/C=C/C#N)cc(C)c1Nc1ccnc(Nc2ccc(C#N)cc2)n1 |  | octanol/water | room temperature | 2.39 ± 0.15
COc1ccc(COC(=O)/C=C/C(=O)NNC(=O)CCc2ccccc2C(=O)N[C@H](C)c2cccc3ccccc23)cc1OC |  |  |  | 4.6
CC(=O)Nc1ccc(S(=O)(=O)Nc2c(C)nn(-c3ccccc3)c2C)cc1 |  | octanol/buffer | pH 11, known kinase inactives set | 0.99
C[C@@H](NC(=O)c1ccccc1CCC(=O)NNC(=O)/C=C/C(=O)OCc1nccs1)c1cccc2ccccc12 |  |  |  | 3.1
O=C(NO)[C@H]1COC(c2c[nH]c3ccc(F)cc23)=N1 |  | octanol/buffer | pH 11 | -0.18
C[C@@H](NC(=O)c1ccccc1CCC(=O)NNC(=O)/C=C/C(=O)OC1CCC1)c1cccc2ccccc12 |  |  |  | 4

Compound | assay | test system | setting | logP
CC(C)CC(=O)N[C@H](C(=O)N[C@H](C(=O)N[C@@H](CC(C)C)[C@@H](O)CC(=O)N[C@@H](C)C(=O)N[C@@H](CC(C)C)[C@@H](O)CC(=O)NCCCC[C@H](NC(=O)CCOCCOCCNC(=O)CN1CCN(CC(=O)O)CCN(CC(=O)O)CC1)C(=O)O)C(C)C)C(C)C [gallium-68 labelled] |  | water |  | -2 ± 0.18
O=C(NC1CCCCC1)c1ncccc1O | shake-flask, potentiometric | 1-octanol/water |  | 3.6
C[C@@H](NC(=O)c1ccccc1CCC(=O)NNC(=O)/C=C/C(=O)OCc1ccccc1)c1cccc2ccccc12 |  |  |  | 4.6
Oc1ccc(Cl)c2cccnc12 | shake-flask, potentiometric | 1-octanol/water |  | 2.8
COc1ccc(NC(=O)CSc2nnc(-c3ccncc3)[nH]2)cc1 |  | octanol/buffer | pH 11, known kinase inactives set | 0
Cc1cnc(NC(=O)C2=C(O)c3ccccc3S(=O)(=O)N2C)s1 | shake-flask, potentiometric | 1-octanol/water |  | 2.5
COC(=O)/C=C/C(=O)NNC(=O)CCc1ccccc1C(=O)N[C@H](C)c1cccc(-c2cc3ccccc3o2)c1 |  |  |  | 4.1
CCn1c(SCC(=O)Nc2cccc(C(C)=O)c2)nnc1-c1ccncc1 |  | octanol/buffer | pH 11, known kinase inactives set | 1.49
Cc1nc(C)c(-n2ccc(-c3ccc4c(c3)CCC(=O)N4)n2)nc1C |  |  |  | > 3
Cc1nn(C)cc1S(=O)(=O)NC(=O)c1ccc(-n2ccc(OCC(C)(C)C(F)(F)F)n2)nc1N1C[C@@H](C)CC1(C)C | shake-flask, potentiometric | 1-octanol/water |  | > 4.7
N#Cc1ccc([C@H]2CCc3cncn32)c(F)c1 |  |  |  | 1.7
CCc1nnc(NS(=O)(=O)c2ccc(NC(=O)c3ccc(F)cc3)cc2)s1 |  | octanol/buffer | pH 11, known kinase inactives set | 0.53
CCCCOC(=O)/C=C/C(=O)NNC(=O)CCc1ccccc1C(=O)N[C@H](C)c1cccc2ccccc12 |  |  |  | 4.4
Cc1cc(NC(=O)C2=C(O)c3ccccc3S(=O)(=O)N2C)no1 | shake-flask, potentiometric | 1-octanol/water |  | 3.5
CCc1ccccc1NC(=O)CSc1nnc(-c2cccc(OC)c2)n1C |  | octanol/buffer | pH 11, known kinase inactives set | 2.85
C[C@@H](NC(=O)c1ccccc1CCC(=O)NNC(=O)/C=C/C(=O)N(C)C)c1cccc2ccccc12 |  |  |  | 2.6
C=Cc1c(C)c2cc3nc(c4c5[nH]c(cc6nc(cc1[nH]2)C(C)=C6CC)c(C)c5C(=O)C4)[C@@H](CCC(=O)OC)[C@@H]3C | shake flask | octanol/water 2:1 |  | 0.663
